{"data": "Assay results gathered from unrelated publications", "note": "Each line is one published result; not all experiments were run side by side. Values joined by “and” are separate records of one study, mostly repeats; a detail may differ. ± gives the spread as reported.", "UniProt P30291, sequence (whole entry, looked up)": "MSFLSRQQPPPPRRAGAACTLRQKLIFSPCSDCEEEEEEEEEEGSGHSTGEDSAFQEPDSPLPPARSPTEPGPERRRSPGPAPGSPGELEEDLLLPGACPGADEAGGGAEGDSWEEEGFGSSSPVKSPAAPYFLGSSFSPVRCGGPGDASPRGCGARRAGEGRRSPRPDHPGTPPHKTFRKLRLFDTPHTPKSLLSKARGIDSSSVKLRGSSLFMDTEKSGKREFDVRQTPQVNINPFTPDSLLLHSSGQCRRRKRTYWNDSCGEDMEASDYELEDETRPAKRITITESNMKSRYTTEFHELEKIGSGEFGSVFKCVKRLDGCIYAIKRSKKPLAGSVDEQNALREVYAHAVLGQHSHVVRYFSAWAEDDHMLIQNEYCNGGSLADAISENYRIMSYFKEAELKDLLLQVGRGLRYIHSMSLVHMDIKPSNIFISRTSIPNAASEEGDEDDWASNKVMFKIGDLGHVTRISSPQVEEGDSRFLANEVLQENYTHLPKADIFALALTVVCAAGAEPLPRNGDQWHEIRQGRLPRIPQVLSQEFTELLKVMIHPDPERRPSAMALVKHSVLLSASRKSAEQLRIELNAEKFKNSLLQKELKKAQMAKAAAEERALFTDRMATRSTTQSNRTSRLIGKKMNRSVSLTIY"}
{"Structure (SMILES)": "O=C(NCc1cccc(Cl)c1)c1ccc([C@H]2[C@@H](F)[C@@H](F)C[C@@H](F)[C@H]2F)cc1", "test": "hepatocyte stability", "test system": "cryopreserved mouse hepatocytes", "setting": "1 µM", "endpoint": "hepatic clearance", "result": "75 mL/min/kg"}
{"Structure (SMILES)": "CCN(CC)CC(=O)Nc1cccc(-n2cc(-c3ccc4ccc(-c5cn(-c6cccc(NC(=O)CN(CC)CC)c6)nn5)cc4c3)nn2)c1", "target or system": "RCC4", "test": "PCR angiogenesis array, refers to: ID1", "setting": "5 x IC50, 4 h, normoxia", "scale": "baseline: untreated", "endpoint": "fold regulation", "result": 1.33}
{"Structure (SMILES)": "O=S(=O)(Nc1ccc(OC(F)(F)F)cc1)N1CCCC(C2c3ccccc3CCc3ccccc32)C1 (stereo not shown)", "target or system": "D425", "test": "immunoblot, refers to: Bad", "setting": "concentration not given, 24 h", "endpoint": "phosphorylation level", "result": "decreased"}
{"Structure (SMILES)": "Nc1ncc(-c2cc(-c3cnn(CC(F)(F)F)c3)ncc2F)nc1C(=O)NC1CNCC(F)C1 (stereo not shown)", "target or system": "PAK6", "test": "KINOMEscan", "setting": "1 µM", "scale": "baseline: DMSO control", "endpoint": "remaining binding", "result": "76%"}
{"Structure (SMILES)": "CC(=O)N[C@@H](CO)C(=O)N[C@H](C(=O)N1CCC[C@H]1C(=O)N[C@@H](CC(=O)O)C(=O)COC(=O)c1c(C)cccc1C)C(C)(C)C", "target or system": "THP-1 cells, LPS-primed", "test": "pyroptosis, LDH release", "setting": "25 µM, LPS 1 µg/mL, 4 h, together with: nigericin 5 µM, 2 h", "endpoint": "cell lysis", "result": "44.6%"}
{"Structure (SMILES)": "O=C(N/N=C/c1cc[n+](CC2CC2)c2ccccc12)c1cccc(C(=O)N/N=C/c2cc[n+](CC3CC3)c3ccccc23)c1", "target or system": "22CTA telomeric G4-DNA antiparallel", "test": "FRET melting", "setting": "1 µM, K10 buffer, DNA 0.2 µM, together with: ds26 10 µM", "endpoint": "ΔTm", "result": "11.1 ± 0.3 °C"}
{"Structure (SMILES)": "CCC(=CCc1c(O)cc2c(c1O)C(=O)CC(c1cccc(O)c1OC)O2)CC (stereo not shown)", "target or system": "HeLa", "test": "cell growth or viability, MTT", "setting": "100 µM, 48 h", "endpoint": "inhibition", "result": "93.5%"}
{"Structure (SMILES)": "O=C(N/N=C/c1cc[n+](Cc2ccccc2)c2ccccc12)c1ccc2ccc(C(=O)N/N=C/c3cc[n+](Cc4ccccc4)c4ccccc34)nc2n1", "target or system": "22CTA telomeric G4-DNA antiparallel", "test": "FRET melting", "setting": "1 µM, K10 buffer, DNA 0.2 µM, together with: ds26 10 µM", "endpoint": "ΔTm", "result": "16.8 ± 0.6 °C"}
{"Structure (SMILES)": "COC(=O)C1=C(C)Oc2ccc(Br)cc2C1C(C(C)=O)C(=O)OC (stereo not shown)", "target or system": "3T3-L1 mature adipocytes", "setting": "IC20", "scale": "baseline: untreated", "endpoint": "glycerol release", "result": "112%"}
{"Structure (SMILES)": "C=C1CC[C@H](OCCCNC(=O)CCOCCOCCOCCOCCOCCOCCOCCOCCOCCOCCOCCOCCOCCOCCOCCOCCOCCOCCOCCOCCOCCOCCOCCOCCOCCOCCOCCOCCOCCOCCOCCOCCOCCOCCOCCOCCNC(=O)CCN2C(=O)CC(SC[C@H](NC(=O)[C@H](Cc3ccccc3)NC(=O)[C@H](CC(N)=O)NC(=O)[C@H](Cc3c[nH]cn3)NC(=O)[C@@H](NC(=O)[C@H](CC(=O)O)NC(=O)[C@H](CCC(N)=O)NC(=O)[C@H](CC(C)C)NC(=O)[C@H](CCCCN)NC(=O)[C@H](CCCCN)NC(=O)[C@H](CCCNC(=N)N)NC(=O)[C@H](CC(C)C)NC(=O)[C@H](Cc3c[nH]c4ccccc34)NC(=O)[C@H](CCC(=O)O)NC(=O)[C@@H](NC(=O)[C@H](CCCNC(=N)N)NC(=O)[C@H](CCC(=O)O)NC(=O)[C@H](CCSC)NC(=O)[C@H](CO)NC(=O)[C@H](CC(N)=O)NC(=O)[C@H](CC(C)C)NC(=O)[C@H](Cc3c[nH]cn3)NC(=O)[C@H](CCCCN)NC(=O)CNC(=O)[C@H](CC(C)C)NC(=O)[C@H](CC(N)=O)NC(=O)[C@H](Cc3c[nH]cn3)NC(=O)[C@H](CCSC)NC(=O)[C@H](CC(C)C)NC(=O)[C@H](CCC(N)=O)NC(=O)[C@@H](NC(=O)[C@H](CCC(=O)O)NC(=O)[C@H](CO)NC(=O)[C@@H](NC(=O)[C@@H](N)CO)C(C)C)[C@@H](C)CC)C(C)C)C(C)C)C(=O)O)C2=O)C/C1=C/C=C1\\CCC[C@]2(C)[C@@H]([C@H](C)CCCC(C)(C)O)CC[C@@H]12 (stereo partly shown)", "test system": "male Sprague-Dawley rat, plasma", "setting": "subcutaneous, 30 µg/kg, single dose", "endpoint": "half-life", "result": "15.4 h"}
{"Structure (SMILES)": "COc1ccccc1-c1ccncc1C(=O)Nc1nnc(OCc2ccc(Cl)cc2)s1", "target or system": "Brca1 Δ11/Δ11 MEFs sgGFP", "setting": "1.25 µM", "endpoint": "colony count", "result": "45 and 62 and 66"}
{"Structure (SMILES)": "COc1ccccc1CNC[C@@](O)(COCc1ccccc1)[C@@H]1CC[C@@H](C)C[C@H]1OCc1ccccc1", "target or system": "A2780", "test": "cell growth or viability, MTT", "setting": "10 µM, 72 h", "endpoint": "inhibition", "result": "99%"}
{"Structure (SMILES)": "CCC(=CCc1c(O)cc2c(c1O)C(=O)CC(c1ccc(O)c(OC)c1)O2)CC (stereo not shown)", "target or system": "HeLa", "test": "cell growth or viability, MTT", "setting": "100 µM, 48 h", "endpoint": "inhibition", "result": "100%"}
{"Structure (SMILES)": "CCc1c(-c2ccc3[nH]ncc3c2)cnc(N)c1-c1ccc(O)cc1", "target or system": "CHP-212 resistant sublines, USP7 V517F heterozygous", "setting": "1.562 µM", "endpoint": "viability", "result": "114%"}
{"Structure (SMILES)": "O=C(Nc1cccc(Sc2ccc3c(/C=C/c4ccccn4)n[nH]c3c2)c1)c1ccco1", "target or system": "BaF3", "test": "cell growth or viability, CCK-8", "endpoint": "GI50", "result": "4270 nM"}
{"Structure (SMILES)": "C=CC(=O)N1[C@@H](c2ccc3c(c2)OCO3)c2[nH]c3ccccc3c2C[C@H]1C(=O)N1CCN(C)CC1", "target or system": "human cyclin E1 N112C-3xFLAG:CDK2", "test": "co-IP with TMT proteomics, refers to: TUBB", "setting": "concentration not given, P07437", "scale": "baseline: wild type DMSO", "endpoint": "relative co-enrichment", "result": "124%"}
{"Structure (SMILES)": "CNS(=O)(=O)Nc1nccc(Cc2c(C)c3ccc(Oc4ncccc4F)cc3oc2=O)c1F", "target or system": "JEG-3", "test": "cell viability", "setting": "7 days", "endpoint": "IC50", "result": "> 1000 nM"}
{"Structure (SMILES)": "C=CC(=O)Nc1cccc(Cn2ncc3cnc(Nc4cnn(CCOC)c4)nc32)c1", "target or system": "CSK human", "test": "binding, KINOMEscan", "setting": "100 nM", "scale": "lower = stronger binding", "endpoint": "percent of control", "result": "100%"}
{"Structure (SMILES)": "NC(=O)c1ccc(-c2ccccc2Cl)c2c3c([nH]c12)CC[C@H](N)C3", "target or system": "Pfeiffer", "test": "cell growth or viability", "endpoint": "IC50", "result": "6.26 nM"}
{"Structure (SMILES)": "CN1CCCNC(=O)c2cccc(c2)C(=O)NCCCN(C)CCCNc2cccc3c2C(=O)c2cccc(c2C3=O)NCCC1", "target or system": "SAS", "test": "RNA-Seq, refers to: CHORDC1 mRNA", "setting": "1 µM, 6 h", "scale": "baseline: untreated cells", "endpoint": "log2 fold change", "result": -1.6}
{"Structure (SMILES)": "Cc1ncsc1-c1ccc(C(C)NC(=O)C2CC(O)CN2C(=O)C(NC(=O)CCCCCCCCCCN2CCCC(Nc3ncc(Cl)c(Nc4ccccc4S(=O)(=O)C(C)C)n3)C2)C(C)(C)C)cc1 (stereo not shown)", "target or system": "22Rv1", "test": "RNA-seq, refers to: SYTL2 mRNA", "setting": "concentration not given", "scale": "baseline: DMSO", "endpoint": "log2 fold change", "result": -1.59}
{"Structure (SMILES)": "COC1CN([C@H]2CC[C@H]([C@@]3(C)Oc4c(Cl)cc(C(=O)NCc5c(SC)cc(C)[nH]c5=O)c(C)c4O3)CC2)C1", "test": "RNA-seq, refers to: NLRX1 mouse homolog", "test system": "mouse, HT-1376 xenograft, whole blood", "setting": "dose not given", "scale": "baseline: vehicle", "endpoint": "log2 fold change", "result": 0.0975}
{"Structure (SMILES)": "N#C[C@@H]1CCCN1C(=O)CNC(=O)c1ccnc2ccc(OCCCN3CCN(C(=O)CCc4ccc5c(c4)CN4CCN(Cc6cc(CCC(=O)O)ccc6O)CC(=O)[O][Al-]([18F])([O]C(=O)C4)[O]5)CC3)cc12 (stereo partly shown)", "target or system": "HT1080 cells expressing human FAP", "setting": "60 min, 37 °C", "endpoint": "internalized fraction", "result": "74.8 ± 2.5%"}
{"Structure (SMILES)": "CC(=O)N[C@@H](CC(=O)O)C(=O)N[C@@H](CC(C)C)C(=O)N[C@@H](C)C(=O)N[C@@H](CC(=O)O)C(=O)COC(=O)c1c(C)cccc1C", "target or system": "THP-1 cells, LPS-primed", "test": "pyroptosis, LDH release", "setting": "25 µM, LPS 1 µg/mL, 4 h, together with: nigericin 5 µM, 2 h", "endpoint": "cell lysis", "result": "68.8% and 83.8%"}
{"Structure (SMILES)": "COc1ccc(S(=O)(=O)NC23CCCC(C)(CCC4C2CC4(C)C)C3)cc1 (stereo not shown)", "target or system": "HT-29", "test": "cell growth or viability, CCK-8", "setting": "10 µM", "endpoint": "inhibition", "result": "< 50%"}
{"Structure (SMILES)": "Cc1nn(-c2cccc(N)c2)c(=O)c2cnc(Nc3ccc(N4CCNCC4)cc3)nc12", "target or system": "WEE1 (Homo sapiens, UniProt P30291)", "test": "kinase activity, inhibitor, SelectScreen kinase profiling", "endpoint": "IC50", "result": "35.2 nM"}
{"Structure (SMILES)": "Cc1ccc2[nH]c(=O)cc(NCCO)c2c1", "target or system": "COS-7 (untransfected)", "setting": "500 µM, unit not given", "scale": "baseline: 3 µM ionomycin", "endpoint": "calcium mobilisation signal", "result": "1.9 ± 0.76"}
{"Structure (SMILES)": "CC12CCCC(NC(=O)c3ccc([N+](=O)[O-])cc3)(C1)C1CC(C)(C)C1CC2 (stereo not shown)", "target or system": "HT-29", "test": "cell growth or viability, CCK-8", "setting": "10 µM", "endpoint": "inhibition", "result": "< 50%"}
{"note": "For quick reference, copied from above:"}
{"Structure (SMILES)": "COC(=O)C1=C(C)Oc2ccc(Br)cc2C1C(C(C)=O)C(=O)OC (stereo not shown)", "target or system": "3T3-L1 mature adipocytes", "setting": "IC20", "scale": "baseline: untreated", "endpoint": "glycerol release", "result": "112%"}
{"Structure (SMILES)": "Cc1ncsc1-c1ccc(C(C)NC(=O)C2CC(O)CN2C(=O)C(NC(=O)CCCCCCCCCCN2CCCC(Nc3ncc(Cl)c(Nc4ccccc4S(=O)(=O)C(C)C)n3)C2)C(C)(C)C)cc1 (stereo not shown)", "target or system": "22Rv1", "test": "RNA-seq, refers to: SYTL2 mRNA", "setting": "concentration not given", "scale": "baseline: DMSO", "endpoint": "log2 fold change", "result": -1.59}
{"Structure (SMILES)": "O=C(NCc1cccc(Cl)c1)c1ccc([C@H]2[C@@H](F)[C@@H](F)C[C@@H](F)[C@H]2F)cc1", "test": "hepatocyte stability", "test system": "cryopreserved mouse hepatocytes", "setting": "1 µM", "endpoint": "hepatic clearance", "result": "75 mL/min/kg"}
